Measurements of several laboratories.
Protocols differ between the studies behind these lines. Numbers after ± are the reported error. Values after ≈ are worked out from the molar mass of the structure shown.

| Compound | test | system | setting | how to read | quantity | value |
| --- | --- | --- | --- | --- | --- | --- |
| CC(C)(Sc1ccncc1-c1ccc(C#N)c2ccccc12)C(=O)O | – | male, plasma | oral, 15 mg, mild renal impairment, fasted | – | terminal half-life | 9.53 h |
| C[C@]1(c2nc3c(C(N)=O)cccc3[nH]2)CCCN1 | – | male rhesus monkey (Macaca mulatta), CSF and plasma | oral, 5 mg/kg | baseline: CSF over plasma | tissue/plasma ratio | 0.57 ± 0.07 |
| CCCC[C@H](NC(C)=O)C(=O)N[C@H]1CCC(=O)NC[C@@H](C(=O)N[C@@H](Cc2c[nH]c3ccccc23)C(N)=O)NC(=O)[C@H](CCCNC(=N)N)NC(=O)[C@@H](Cc2ccccc2)NC(=O)[C@H](Cc2c[nH]cn2)NC1=O | – | beagle dog, male, plasma | subcutaneous, 40.0 mg/kg daily, day 28 | – | AUC(0-last) | 4620 ng·h/mL |
| CNC(=O)c1cc(Oc2ccc(NC(=O)Nc3ccc(Cl)c(C(F)(F)F)c3)c(F)c2)ccn1 | – | metastatic colorectal cancer patients, plasma | oral, 120 mg once daily, 5 days, with: esomeprazole 40 mg 3 h before | – | AUC(0-24h) | 53600 ng·h/mL |
| CC(C)C[C@H](NC(=O)[C@H](CC(C)C)NC(=O)[C@@H](Cc1c[nH]c2ccccc12)NC(=O)[C@@H](NC(=O)[C@@H](Cc1csc2ccccc12)NC(=O)[C@@H](N)CCCCN)[C@H](c1ccccc1)c1c[nH]c2ccccc12)C(N)=O | RP-HPLC Kinetex Biphenyl | – | acetonitrile/water TFA gradient | – | HPLC retention | 50.7 %B |
| O=C(/C=C/c1cccc(S(=O)(=O)Nc2ccccc2)c1)NO | – | human severe liver dysfunction, plasma | intravenous, 400 mg/m^2, 30 min infusion, cycle 1 day -7 | – | volume of distribution steady-state | 29.6 L/m² |
| CC(C)NC[C@@H](C(=O)N1CCN(c2ncnc3c2[C@H](C)C[C@H]3O)CC1)c1ccc(Cl)cc1 | – | human, hepatic impairment Severe (Child-Pugh), plasma | oral, 100 mg single, geometric mean | – | AUC(0-72) | 632 ng·h/mL |
| COc1ccc(-c2oc3c(OC)c(OC)c(OC)c(O)c3c(=O)c2OC)cc1OC | – | C57BL/6 mouse, male, colon | oral, 1% w/w in diet, 6 weeks, orange peel extract diet | baseline: content in orange peel | tissue to peel content ratio | 1.01% |
| OC[C@H]1O[C@@H](c2ccc(F)c(Cc3cc4ccccc4s3)c2)[C@H](O)[C@@H](O)[C@@H]1O | – | Wistar rat, male, kidney | oral, dose not given, 24 h | baseline: kidney over plasma concentration | tissue/plasma ratio | 301 ± 86.9 |
| O=C(O)CC[C@H]1CC[C@@](c2cc(F)ccc2F)(S(=O)(=O)c2ccc(Cl)cc2)CC1 | ELISA | human, serum | dose not given | – | dalotuzumab trough serum concentration | no effect |
| CS/C(S)=N/CCCC[S+](C)[O-] (racemic) | RT-PCR, item: Cyp3a23/1 | rat, liver | oral gavage, 200 mg/kg, dosed for four days | baseline: vehicle | mRNA fold change | 2.28 |
| Cc1nc2cccc(OCC(C)(C)C(=O)NC(C)C)c2c(N)c1C(=O)O | – | male Sprague-Dawley rat, plasma | oral, 100 mg/kg, single dose | – | AUC(0-t) | 176 ng·h/mL |
| CC(=O)c1ccc([C@H]2C[C@@]3(C)[C@@H](CC[C@@]3(O)C(F)(F)C(F)(F)F)[C@@H]3CCC4=CC(=O)CCC4=C32)cc1 | – | human liver microsomes | 100 % absorption assumed | – | maximal oral bioavailability | 77% |
| Cc1[nH]c2ccccc2c1CCNCc1ccc(/C=C/C(=O)NO)cc1 | – | human | concentration not given, day 7, with: doxazosin, irbesartan, hydrochlorothiazide | – | maximum serum creatinine | 1.72 mg/dL |
| NC(=O)OCC(COC(N)=O)c1ccccc1 | – | Sprague-Dawley rat, male, liver | oral, 1920 mg/kg, 6 h, single high dose | direction not given | hepatocyte vacuolization score | 0 |
| Nc1ccn([C@@H]2O[C@H](CO)[C@@H](O)C2(F)F)c(=O)n1 | – | extracted rat plasma | 3200.00 ng/mL, 8 h, 10 °C, autosampler stability, high QC | – | measured concentration | 3000 ± 152 ng/mL |
| Oc1ncnc2[nH]ncc12 | – | human, male, urine | oral, 10 mg, with: allopurinol 300 mg | baseline: combination over alone | Ae(0-24) ratio | 89.5% |
| CC(C)=CCC[C@](C)(O[C@@H]1O[C@H](CO)[C@@H](O)[C@H](O)[C@H]1O)[C@H]1CC[C@]2(C)[C@@H]1[C@H](O)C[C@@H]1[C@@]3(C)CC[C@H](O)C(C)(C)[C@@H]3[C@@H](O[C@@H]3O[C@H](CO)[C@@H](O)[C@H](O)[C@H]3O)C[C@]12C | – | rat, extracted tissue homogenate QC samples | 0.01 µg/mL, 24 h, 15 °C, autosampler | – | post-preparative stability accuracy | 103 ± 4.8% |
| Cn1c(-c2ccc(C(N)=O)cc2F)nnc1C(C)(C)Oc1c(F)cc(Cl)cc1F | – | young non-Japanese adults, plasma | oral, 50 mg single dose, day 1, high-dose multiple-dose study | – | half-life mean | 13.4 h |
| COc1cc(OC)c(/C=C/S(=O)(=O)Cc2ccc(OC)c(NCC(=O)O)c2)c(OC)c1 | – | cancer patients, phase I, plasma | oral, 560 mg twice daily, day 21 cycle 1 | – | Vss/F | 574 ± 498 L |
| C[C@]12CC[C@@H]3c4ccc(O)cc4CC[C@H]3[C@@H]1C[C@@H](O)[C@@H]2O | GC-MS | breast cancer women on NSAI, serum | vaginal, 0.03 mg daily, 2 h, day 28 | – | median serum concentration | 0 ng/mL |
| CN1CC[C@@H](NC(=O)Nc2ccc(C#N)cc2)C[C@@H]1c1nc2ccccc2[nH]1 | – | severe hepatic impairment, plasma | oral, 100 mg single dose, fasted, arithmetic mean | – | AUC(0-t), unbound | 1040 ± 379 ng·h/mL |
| CCOc1ccc(NC(=S)N(CCO)Cc2cc3cc(C)cc(C)c3[nH]c2=O)cc1 | – | C57BL/6J mouse, plasma | intravenous, 3 mg/kg, with: ABT 50 mg/kg oral pretreatment 2 h before | – | AUC(0-24 h) | 12600 ng·h/mL |
| CC(C)C[C@H](NC(=O)[C@H](CCCNC(=N)N)NC(=S)Nc1ccc(C[C@H]2CN(CC(=O)O)CCN(CC(=O)O)CCN2CC(=O)O)cc1)C(=O)N[C@@H](CC(N)=O)C(=O)N[C@H](C(=O)NCC(=O)NCC(=O)N[C@H](C(=O)N[C@@H](Cc1ccc(O)cc1)C(=O)N[C@@H](Cc1ccccc1)C(=O)N[C@@H](CC(C)C)C(=O)N[C@H](C(=O)N[C@H](C(=O)N[C@@H](CCCNC(=N)N)C(=O)N[C@@H](CCC(N)=O)C(=O)O)[C@@H](C)O)[C@@H](C)O)[C@@H](C)O)C(C)C [fluorine-18 labelled] | reverse-phase HPLC | – | – | – | HPLC retention time | 14 min |
| O=C(O)/C=C/c1ccccc1 | – | rat plasma QC sample | 256 ng/mL nominal, 24 h, medium QC level autosampler stability | – | measured concentration | 254 ± 5.72 ng/mL |
| C=CC[C@@H]1/C=C(\C)C[C@H](C)C[C@H](OC)[C@H]2O[C@@](O)(C(=O)C(=O)N3CCCC[C@H]3C(=O)O[C@H](/C(C)=C/[C@@H]3CC[C@@H](O)[C@H](OC)C3)[C@H](C)[C@@H](O)CC1=O)[C@H](C)C[C@@H]2OC | shake flask | 10% w/v nicotinamide solution | 3 days, 37 °C | – | solubility | 39.3 ± 1.86 µg/mL (≈ 48.9 µM) |
| CC[C@H](C)[C@H](NC(=O)[C@H](CCCCN)NC(=O)[C@@H](NC(=O)[C@H](CCC(N)=O)NC(=O)[C@@H](N)CCCNC(=N)N)[C@@H](C)CC)C(=O)N[C@@H](Cc1c[nH]c2ccccc12)C(=O)N[C@@H](Cc1ccccc1)C(=O)N[C@@H](CCC(N)=O)C(=O)N[C@@H](CC(N)=O)C(=O)N[C@@H](CCCNC(=N)N)C(=O)N[C@@H](CCCNC(=N)N)C(=O)N[C@@H](CCSC)C(=O)N[C@@H](CCCCN)C(=O)N[C@@H](Cc1c[nH]c2ccccc12)C(=O)N[C@@H](CCCCN)C(=O)N[C@@H](CCCCN)C(N)=O | circular dichroism | TFE:water 50:50 | 40 µM, 25 °C | – | α-helix content | 11% |
| [2H]C([2H])([2H])Oc1cc2c(cc1OC([2H])([2H])[2H])C1CC(=O)C(CC(C)C)CN1CC2 (stereo not shown) | item: deuterated β-HTBZ | healthy human volunteers, plasma | oral, 12 mg single dose, standard meal | – | dose-normalized AUC(0-t) | 5.2 ng·h/mL |
